Published values gathered from unrelated publications.
Lines come from different studies, so protocols differ. ± gives the spread as reported. Converted amounts (≈) assume the structure as drawn.

Chains of the proteins cited; added tags and fusions are not shown.
UniProt P10635, whole entry: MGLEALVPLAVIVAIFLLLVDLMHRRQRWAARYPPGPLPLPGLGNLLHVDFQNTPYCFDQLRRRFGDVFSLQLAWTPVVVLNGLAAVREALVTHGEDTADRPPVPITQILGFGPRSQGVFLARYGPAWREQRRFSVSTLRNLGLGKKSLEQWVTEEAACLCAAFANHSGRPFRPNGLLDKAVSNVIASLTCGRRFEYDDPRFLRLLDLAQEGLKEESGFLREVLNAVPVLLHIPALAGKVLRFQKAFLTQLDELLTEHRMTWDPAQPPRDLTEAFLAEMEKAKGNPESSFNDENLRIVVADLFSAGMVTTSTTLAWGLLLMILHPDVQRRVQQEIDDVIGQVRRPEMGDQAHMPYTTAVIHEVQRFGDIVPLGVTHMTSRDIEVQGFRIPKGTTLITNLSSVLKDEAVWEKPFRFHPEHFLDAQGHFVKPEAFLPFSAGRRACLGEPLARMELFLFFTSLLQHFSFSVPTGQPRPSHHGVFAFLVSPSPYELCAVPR
UniProt P08684, whole entry: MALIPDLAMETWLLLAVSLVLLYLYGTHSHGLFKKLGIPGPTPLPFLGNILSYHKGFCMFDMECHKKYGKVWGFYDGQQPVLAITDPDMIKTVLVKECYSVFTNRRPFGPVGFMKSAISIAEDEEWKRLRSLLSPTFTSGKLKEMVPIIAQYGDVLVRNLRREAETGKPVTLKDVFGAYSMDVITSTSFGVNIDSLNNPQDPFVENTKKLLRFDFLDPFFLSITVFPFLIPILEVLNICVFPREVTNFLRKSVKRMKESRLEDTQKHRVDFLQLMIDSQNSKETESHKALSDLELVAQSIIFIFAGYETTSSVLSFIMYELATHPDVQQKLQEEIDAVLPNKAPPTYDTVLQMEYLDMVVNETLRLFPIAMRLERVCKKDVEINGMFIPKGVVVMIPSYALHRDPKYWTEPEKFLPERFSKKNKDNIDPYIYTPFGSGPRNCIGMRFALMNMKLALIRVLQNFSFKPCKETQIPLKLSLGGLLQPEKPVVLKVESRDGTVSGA

| SMILES | target or system | test | system | setting | quantity | value |
| --- | --- | --- | --- | --- | --- | --- |
| Cc1nc(-c2ccc(C(F)(F)F)c(F)c2)sc1COc1ccc(CCC(=O)O)cc1 | HEK293T | – | – | 18 h | CC50 | > 100 µM |
| COc1cc([C@@H]2c3cc4c(cc3[C@](O)(C3(O)CCOCC3)[C@H]3COC(=O)[C@H]23)OCO4)cc(OC)c1OC | mouse splenocytes uninfected | Alamar Blue | – | 48 h | CC50 | 4.3 ± 0.6 µM |
| Cc1cc(SCc2sc(-c3ccc(C(F)(F)F)cc3C(F)(F)F)nc2C)ccc1OCC(=O)O | HEK293T | – | – | 18 h | CC50 | > 50 µM |
| CCCSc1nc(N[C@@H]2C[C@H]2c2ccc(F)c(F)c2)c2nnn([C@@H]3C[C@H](O)[C@@H](O)[C@H]3O)c2n1 | – | – | ovariectomized female Wistar rat, plasma | oral, 180 mg/kg/day ticagrelor, 5 h, day 1 | plasma concentration | 8.1 ± 2.7 µM |
| Cc1cc(SCc2sc(-c3ccc(Cl)cc3C(F)(F)F)nc2C)ccc1OCC(=O)O | HEK293T | – | – | 18 h | CC50 | > 50 µM |
| COc1ccc(NC(=O)CN2CCCN(S(=O)(=O)c3cccs3)CC2)c(OC)c1 | Cytochrome P450 2D6 (CYP2D6, Homo sapiens, UniProt P10635) | enzyme activity, inhibitor | – | – | IC50 | 10.1 µM |
| CCOc1ccccc1Nc1nnc(SCC(=O)Nc2cc(F)ccc2F)s1 | Jurkat | MTS | – | up to 300 µM, 24 h | viability | > 85% |
| CCOc1ccc(S(=O)(=O)NC(=O)Cc2ccc(I)cc2)cc1Br | MDCKII-MDR1 | – | – | time not given | recovery A-B | 96% |
| CC(C)n1nnc(-c2cc(O)cc(Nc3ncnn4ccc(CN5CCC(N)CC5)c34)c2)n1 | – | – | mouse, plasma | subcutaneous, 60 mg/kg, 90 min | total plasma concentration | 11.9 ± 1.2 µM |
| COC(=O)[C@@H]1C(C=Nc2cc(C)ccc2O)=Cc2cc3c(cc2[C@H]1c1cc(OC)c(OC)c(OC)c1)OCO3 | mouse splenocytes uninfected | Alamar Blue | – | 48 h | CC50 | 38.7 ± 1.5 µM |
| Cc1ccc(NC(=O)C2CC3CCC2C3)c(C)c1 (stereo not drawn) | Cytochrome P450 3A4 (CYP3A4, Homo sapiens, UniProt P08684) | enzyme activity, inhibitor | – | – | IC50 | > 30 µM |
| Cc1cc(SCc2sc(-c3ccc(Cl)c(Cl)c3)nc2C)ccc1OCC(=O)O | HEK293T | – | – | 18 h | CC50 | > 50 µM |
| Nc1ncc(-c2ccc3ncnc(N4CCc5cc(F)c(Cl)cc54)c3c2)cn1 | – | – | CD1 mouse, brain | oral, 100 mg/kg | Tmax | 8 h |
| COC(=O)[C@@H]1C(C=Nc2nccs2)=Cc2cc3c(cc2[C@H]1c1cc(OC)c(OC)c(OC)c1)OCO3 | mouse splenocytes uninfected | Alamar Blue | – | 48 h | CC50 | 58.1 ± 2.7 µM |
| Cc1cc(SCc2sc(-c3cccc(Cl)c3)nc2C)ccc1OCC(=O)O | HEK293T | – | – | 18 h | CC50 | 28.8 ± 5 µM |
| Cc1c(-c2ccccc2)nn2c(=O)cc(-c3cccc(-c4nnn[nH]4)c3)[nH]c12 | – | – | mouse | intravenous | half-life | < 1 h |
| Cc1n[nH]c(C)c1CCOC(=O)c1cccc2c1oc(=O)n2C | – | – | FaSSIF | – | solubility | 124 µM (≈ 39.1 µg/mL) |
| COc1cc([C@@H]2c3cc4c(cc3C=C(C=O)[C@H]2C(=O)OCCCn2cnc3c(Cl)ncnc32)OCO4)cc(OC)c1OC | mouse splenocytes uninfected | Alamar Blue | – | 48 h | CC50 | 42 ± 1.9 µM |
| COc1ccc(CC(=O)OCc2ccc(-n3cccn3)cc2)cc1F | – | – | BALB/c mouse, plasma | intravenous, 2 mg/kg | volume of distribution | 0.45 L/kg |
| COC(=O)[C@@H]1C(c2nc3cncnc3[nH]2)=Cc2cc3c(cc2[C@H]1c1cc(OC)c(OC)c(OC)c1)OCO3 | HepG2 | Alamar Blue | – | 48 h | CC50 | 92.5 ± 6.8 µM |
| Cc1cc(NC(=O)c2cccc(NC(=O)C3=CC(C)(C)CCC3=O)c2)ccc1Nc1nccc(-c2cccnc2)n1 | – | – | rat plasma | 1 µM, 15 min | compound remaining | 104% |
| COc1cc([C@@H]2c3cc4c(cc3[C@@H](OC(C)C)[C@H]3COC(=O)[C@H]23)OCO4)cc(OC)c1OC | mouse splenocytes uninfected | Alamar Blue | – | 48 h | CC50 | 38 ± 2.5 µM |
| Cc1cc(SCc2sc(-c3cncc4ccccc34)nc2C)ccc1OCC(=O)O | HEK293T | – | – | 18 h | CC50 | not toxic |
| COC(=O)[C@@H]1C(c2nc3cc(C)ccc3o2)=Cc2cc3c(cc2[C@H]1c1cc(OC)c(OC)c(OC)c1)OCO3 | mouse splenocytes uninfected | Alamar Blue | – | 48 h | CC50 | 86.2 ± 0.1 µM |
| Cc1cc(OCc2sc(-c3ccc(C(F)(F)F)c(F)c3)nc2C)ccc1OCC(=O)O | HEK293T | – | – | 18 h | CC50 | > 100 µM |
| COC(=O)[C@@H]1C(c2nc3cc(Cl)ccc3o2)=Cc2cc3c(cc2[C@H]1c1cc(OC)c(OC)c(OC)c1)OCO3 | HepG2 | Alamar Blue | – | 48 h | CC50 | 46.8 ± 1.3 µM |
| Cc1cc(SCc2sc(-c3cccc4ccccc34)nc2C)ccc1OCC(=O)O | HEK293T | – | – | 18 h | CC50 | > 50 µM |

Some of these lines once more:
| SMILES | target or system | test | system | setting | quantity | value |
| --- | --- | --- | --- | --- | --- | --- |
| Cc1n[nH]c(C)c1CCOC(=O)c1cccc2c1oc(=O)n2C | – | – | FaSSIF | – | solubility | 124 µM (≈ 39.1 µg/mL) |
| COc1cc([C@@H]2c3cc4c(cc3C=C(C=O)[C@H]2C(=O)OCCCn2cnc3c(Cl)ncnc32)OCO4)cc(OC)c1OC | mouse splenocytes uninfected | Alamar Blue | – | 48 h | CC50 | 42 ± 1.9 µM |
| COc1ccc(CC(=O)OCc2ccc(-n3cccn3)cc2)cc1F | – | – | BALB/c mouse, plasma | intravenous, 2 mg/kg | volume of distribution | 0.45 L/kg |
| COC(=O)[C@@H]1C(c2nc3cncnc3[nH]2)=Cc2cc3c(cc2[C@H]1c1cc(OC)c(OC)c(OC)c1)OCO3 | HepG2 | Alamar Blue | – | 48 h | CC50 | 92.5 ± 6.8 µM |
